Assay results pooled from the literature.
Every numbered part comes from another study and shows a few of its results, in no order.

Series 1 — method: protein-binding microarray; molecule type: double-stranded DNA, one strand shown; medium: in vitro; tested at: 2200 nM top; setting: 60-bp whole probe; added: salmon DNA 0.4 mg/ml; reference: random background probes; reading: higher = stronger binding; all sequences stand within: GCCTAGCAC … GTCTTGATTCGCTTGACGCTGCTG
Target: Interferon regulatory factor 7, full length, phosphomimetic (IRF7, Homo sapiens, UniProt Q92985, residues 1-503, S471D/S472D/S475D/S476D/S477D/S483D/S484D/S487D)
Sequence of UniProt Q92985 (whole entry, unmodified, looked up): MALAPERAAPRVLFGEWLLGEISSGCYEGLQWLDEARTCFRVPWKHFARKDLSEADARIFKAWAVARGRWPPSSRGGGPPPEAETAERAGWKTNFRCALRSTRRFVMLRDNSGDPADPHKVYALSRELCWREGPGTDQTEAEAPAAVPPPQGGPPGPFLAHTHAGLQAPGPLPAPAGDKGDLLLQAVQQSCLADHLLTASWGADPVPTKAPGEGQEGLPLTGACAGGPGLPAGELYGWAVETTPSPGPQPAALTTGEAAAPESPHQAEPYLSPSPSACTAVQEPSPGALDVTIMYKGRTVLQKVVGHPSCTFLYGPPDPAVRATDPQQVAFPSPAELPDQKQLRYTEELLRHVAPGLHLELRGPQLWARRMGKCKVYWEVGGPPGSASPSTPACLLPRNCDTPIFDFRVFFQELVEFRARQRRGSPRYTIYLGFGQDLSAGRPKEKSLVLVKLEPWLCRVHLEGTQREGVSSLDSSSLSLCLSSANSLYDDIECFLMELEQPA
Sequence	fitted relative affinity [z-score]
GACGGTTTCCTGCTGCTGACGTGCTAG	1.96
TCATGTGTCTGATTATTACTGTGCTAG	0.957
CTCTCTTTCCACTTGTCTTTGTGCTAG	5.01
GACGGTCTCGGTATCGAGACGTGCTAG	-0.159
GACGATCTCAGTACCGAGACGTGCTAG	0.444
TTAGATATCGGGTATCGATAAGTGCTA	0.000316
TATGTTTTTCATTTTGTTCAGTGCTAG	3.69

Series 2 — method: protein binding microarray; molecule type: double-stranded DNA, one strand shown; medium: in vitro; tested at: not given; reference: not given; reading: higher = stronger binding
Target: Histone acetyltransferase KAT6A, both winged helices, GST fusion (KAT6A, Homo sapiens, UniProt Q92794, residues 1-181)
Setting: 8-mer, flanks averaged, mean of 2 arrays, mostly near background
Construct (chain): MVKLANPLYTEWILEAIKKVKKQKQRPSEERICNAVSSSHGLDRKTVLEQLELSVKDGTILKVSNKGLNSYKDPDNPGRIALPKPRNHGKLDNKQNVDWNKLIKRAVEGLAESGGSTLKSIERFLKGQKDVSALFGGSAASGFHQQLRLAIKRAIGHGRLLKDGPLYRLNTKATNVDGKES
Sequence	E-score
TCCTGTAA	-0.0962
CGGCACTA	0.22
AACGGACC	0.124
AATGCGGG	0.137
ACTCCCGC	0.267
ACATGCAC	-0.0906
CAAATTCG	-0.0706

Series 3 — method: universal PBM; molecule type: double-stranded DNA, one strand shown; medium: in vitro; tested at: 600 nM; reading: higher = stronger binding
Target: Sal-like protein 4, full length isoform A (SALL4, Homo sapiens, UniProt Q9UJQ4, residues 1-1053)
Sequence of UniProt Q9UJQ4 (whole entry, looked up): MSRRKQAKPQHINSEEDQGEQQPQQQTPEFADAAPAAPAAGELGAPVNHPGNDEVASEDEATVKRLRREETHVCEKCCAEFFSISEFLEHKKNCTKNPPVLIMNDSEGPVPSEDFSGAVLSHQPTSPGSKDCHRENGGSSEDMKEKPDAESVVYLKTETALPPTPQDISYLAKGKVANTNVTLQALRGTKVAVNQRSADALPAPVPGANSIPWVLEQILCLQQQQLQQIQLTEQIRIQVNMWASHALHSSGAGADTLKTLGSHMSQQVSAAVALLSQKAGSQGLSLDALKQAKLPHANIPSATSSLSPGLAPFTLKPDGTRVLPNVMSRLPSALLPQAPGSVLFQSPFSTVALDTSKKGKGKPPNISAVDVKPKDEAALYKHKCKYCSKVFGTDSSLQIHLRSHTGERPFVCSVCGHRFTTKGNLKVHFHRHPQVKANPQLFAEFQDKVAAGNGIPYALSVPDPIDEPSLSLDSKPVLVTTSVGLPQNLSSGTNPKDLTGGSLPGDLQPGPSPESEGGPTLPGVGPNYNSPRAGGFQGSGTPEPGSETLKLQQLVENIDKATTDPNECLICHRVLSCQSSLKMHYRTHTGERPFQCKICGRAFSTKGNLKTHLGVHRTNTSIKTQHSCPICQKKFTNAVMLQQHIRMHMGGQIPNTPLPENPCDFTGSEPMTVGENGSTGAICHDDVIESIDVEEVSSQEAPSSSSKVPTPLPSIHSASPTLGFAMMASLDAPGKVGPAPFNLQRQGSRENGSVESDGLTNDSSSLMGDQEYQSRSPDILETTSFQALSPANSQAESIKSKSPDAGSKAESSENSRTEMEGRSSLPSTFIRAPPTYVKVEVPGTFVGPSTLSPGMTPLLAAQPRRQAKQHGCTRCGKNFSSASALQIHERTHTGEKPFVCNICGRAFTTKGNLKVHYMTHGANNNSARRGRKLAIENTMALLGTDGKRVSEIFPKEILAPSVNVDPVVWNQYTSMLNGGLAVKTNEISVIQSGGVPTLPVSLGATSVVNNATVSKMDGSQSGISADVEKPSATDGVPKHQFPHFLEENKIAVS
Setting: 8-mer, flanks averaged, mean of replicates
Sequence	E-score
AGAGGACT	-0.0229
GGTGCACA	-0.168
TCTGCCCA	-0.151
AGCGACTG	-0.0588
ACTTGGAC	-0.115

Mixed results
Substance	target	assay	test system	conditions	how to read	quantity	value
PhoQ, residues 284 288 289 292 302 303 SSLVEF	PhoP, residues 12 14 15 18 19 AWHSL (Escherichia coli, UniProt P23836)	Sort-seq, measured: YFP reporter	E. coli	PhoQ-PhoP variant library, added: 10 µM Mg2+	reference: high Mg2+ state, higher = stronger signaling	fold induction	3.92

Repeated from above (series 3):
Sequence	E-score
GGTGCACA	-0.168
TCTGCCCA	-0.151
AGCGACTG	-0.0588
